Published values of several laboratories.
Compare with care: the assays were run in different laboratories. Values joined by “and” are separate records of one study, mostly repeats; a detail may differ. ± marks the error that the study gave.
B1: human AP2B1; sequence looked up; chain TDSKYFTTNKKGEIFELKAELNNEKKEKRKEAVKKVIAAMTVGKDVSSLFPDVVNCMQTDNLELKKLVYLYLMNYAKSQPDMAIMAVNSFVKDCEDPNPLIRALAVRTMGCIRVDKITEYLCEPLRKCLKDEDPYVRKTAAVCVAKLHDINAQMVEDQGFLDSLRDLIADSNPMVVANAVAALSEISESHPNSNLLDLNPQNINKLLTALNECTEWGQIFILDCLSNYNPKDDREAQSICERVTPRLSHANSAVVLSAVKVLMKFLELLPKDSDYYNMLLKKLAPPLVTLLSGEPEVQYVALRNINLIVQKRPEILKQEIKVFFVKYNDPIYVKLEKLDIMIRLASQANIAQVLAELKEYATEVDVDFVRKAVRAIGRCAIKVEQSAERCVSTLLDLIQTKVNYVVQEAIVVIRDIFRKYPNKYESIIATLCENLDSLDEPDARAAMIWIVGEYAERIDNADELLESFLEGFHDESTQVQLTLLTAIVKLFLKKPSETQELVQQVLSLATQDSDNPDLRDRGYIYWRLLSTDPVTAKEVVLSEKPLISEETDLIEPTLLDELICHIGSLASVYHKPPNAFVEGSHGIHRKHLPIHHGSTDAGDSPVGTTTATNLEQPQVIPSQGDLLGDLLNLDLGPPVNVPQVSSMQMGAVDLLGGGLDSLVGQSFIPSSVPATFAPSPTPAVVSSGLNDLFELSTGIGMAPGGYVAPKAVWLPAVKAKGLEISGTFTHRQGHIYMEMNFTNKALQHMTDFAIQFNKNSFGVIPSTPLAIHTPLMPNQSIDVSLPLNTLGPVMKMEPLNNLQVAVKNNIDVFYFSCLIPLNVLFVEDGKMERQVFLATWKDIPNENELQFQIKECHLNADTVSSKLQNNNVYTIAKRNVEGQDMLYQSLKLTNGIWILAELRIQPGNPNYTLSLKCRAPEVSQYIYQVYDSILKN
B2: human PHGDH; sequence looked up; chain AFANLRKVLISDSLDPCCRKILQDGGLQVVEKQNLSKEELIAELQDCEGLIVRSATKVTADVINAAEKLQVVGRAGTGVDNVDLEAATRKGILVMNTPNGNSLSAAELTCGMIMCLARQIPQATASMKDGKWERKKFMGTELNGKTLGILGLGRIGREVATRMQSFGMKTIGYDPIISPEVSASFGVQQLPLEEIWPLCDFITVHTPLLPSTTGLLNDNTFAQCKKGVRVVNCARGGIVDEGALLRALQSGQCAGAALDVFTEEPPRDRALVDHENVISCPHLGASTKEAQSRCGEEIAVQFVDMVKGKSLTGVVNAQALTSAFSPHTKPWIGLAEALGTLMRAWAGSPKGTIQVITQGTSLKNAGNCLSPAVIVGLLKEASKQADVNLVNAKLLVKEAGLNVTTSHSPAAPGEQGFGECLLAVALAGAPYQAVGLVQGTTPVLQGLNGAVFRPEVPLRRDLPLLLFRTQTSDPAMLPTMIGLLAEAGVRLLSYQTSLVSDGETWHVMGISSLLPSLEAWKQHVTEAFQFHF
B3: human EEF1D; sequence looked up; chain ATNFLAHEKIWFDKFKYDDAERRFYEQMNGPVAGASRQENGASVILRDIARARENIQKSLAGSSGPGASSGTSGDHGELVVRIASLEVENQSLRGVVQELQQAISKLEARLNVLEKSSPGHRATAPQTQHVSPMRQVEPPAKKPATPAEDDEDDDIDLFGSDNEEEDKEAAQLREERLRQYAEKKAKKPALVAKSSILLDVKPWDDETDMAQLEACVRSIQLDGLVWGASKLVPVGYGIRKLQIQCVVEDDKVGTDLLEEEITKFEEHVQSVDIAAFNKI
B4: human archaemetzincin-2; sequence looked up; chain MQIIRHSEQTLKTALISKNPVLVSQYEKLNAGEQRLMNEAFQPASDLFGPITLHSPSDWITSHPEAPQDFEQFFSDPYRKTPSPNKRSIYIQSIGSLGNTRIISEEYIKWLTGYCKAYFYGLRVKLLEPVPVSVTRCSFRVNENTHNLQIHAGDILKFLKKKKPEDAFCVVGITMIDLYPRDSWNFVFGQASLTDGVGIFSFARYGSDFYSMHYKGKVKKLKKTSSSDYSIFDNYYIPEITSVLLLRSCKTLTHEIGHIFGLRHCQWLACLMQGSNHLEEADRRPLNLCPICLHKLQCAVGFSIVERYKALVRWIDDESSDTPGATPEHSHEDNGNLPKPVEAFKEWKEWIIKCLAVLQK
Sequence of UniProt Q64663 (whole entry, unmodified, looked up): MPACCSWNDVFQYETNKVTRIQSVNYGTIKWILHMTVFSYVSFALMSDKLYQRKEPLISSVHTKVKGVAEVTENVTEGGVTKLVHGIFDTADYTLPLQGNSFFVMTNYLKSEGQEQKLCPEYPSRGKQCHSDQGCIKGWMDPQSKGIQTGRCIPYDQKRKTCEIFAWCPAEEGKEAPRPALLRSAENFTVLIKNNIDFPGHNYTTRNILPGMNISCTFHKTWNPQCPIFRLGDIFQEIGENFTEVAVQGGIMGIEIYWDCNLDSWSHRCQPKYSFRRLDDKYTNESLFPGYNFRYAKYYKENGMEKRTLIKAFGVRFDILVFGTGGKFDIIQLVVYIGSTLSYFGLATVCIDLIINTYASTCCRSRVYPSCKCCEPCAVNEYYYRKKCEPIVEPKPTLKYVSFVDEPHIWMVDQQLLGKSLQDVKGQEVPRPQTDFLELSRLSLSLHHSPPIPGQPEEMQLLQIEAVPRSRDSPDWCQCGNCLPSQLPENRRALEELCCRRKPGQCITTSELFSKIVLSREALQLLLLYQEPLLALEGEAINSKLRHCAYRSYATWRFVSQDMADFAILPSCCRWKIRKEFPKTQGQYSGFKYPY

| Molecule | tested on | test | test system | setting | scale | quantity | value |
| --- | --- | --- | --- | --- | --- | --- | --- |
| human RAD50 | CYB5R4 knockout human cells | PP6 interaction, 3xFLAG-PP6C IP-MS |  | concentration not given | relative to: CYB5R4 KO over parental | log2 fold change | 0.62 |
| QDEKVKESYV | construct, MBP fusion, human SCRIB, PDZ 3-4 | automated holdup | peptide, purified PDZ protein | concentration not given, unit not given | relative to: biotin control resin, higher = stronger binding | binding intensity | 0.376 |
| FNA / CGLSGLGVA-NH2 ([18F]FNA-labelled, C-amide) |  | ex vivo gamma counting | peptide, healthy mouse, kidney | 60 min post injection |  | tissue uptake | 5.39 %ID/g |
| colistin | Pseudomonas aeruginosa |  | PA1802 PER-producing isolate |  |  | MIC | 0.5 mg/L |
| NRVDSKETEC | construct, MBP fusion, human SCRIB, PDZ 3-4 | automated holdup | peptide, crude extract | concentration not given, corrected by standard peak, unit not given | relative to: biotin control resin, higher = stronger binding | binding intensity | 0.325 |
| FGA (Homo sapiens, UniProt P02671) | ARB2A (Homo sapiens, UniProt Q8WUF8) | cross-linking MS |  | together with: DSSO |  | cross-linked residues | K71 to K235 |
| GSGAGRETEV | construct, MBP fusion, human SCRIB, PDZ 3-4 | surface plasmon resonance | peptide | concentration not given | higher = stronger binding | normalised SPR binding response | 41.9 normalised RU |
| colistin | Escherichia coli | broth microdilution | clinical isolate RKI-No_314/16 |  |  | MIC | 8 mg/L |
| GSGAGSETVV | construct, MBP fusion, human SCRIB, PDZ 3-4 | automated holdup | peptide, crude extract | concentration not given, uncorrected, unit not given | relative to: biotin control resin, higher = stronger binding | binding intensity | 0.082 |
| Peginesatide | UT7/EPO | RT-qPCR, measured: EGR1 |  | concentration not given, 90 min, normalized to HPRT1 | relative to: vehicle | mRNA level | 42.4 fold |
| Polymyxin B | Klebsiella pneumoniae |  | ATCC 43863 | concentration not given |  | superoxide dismutase activity | 0.481 U and 0.58 U and 0.506 U |
| human ME2 T60S |  | enzyme activity, activator, NADH absorbance | recombinant enzyme | range over 0 to 5 mM, pH 7.4 | relative to: wild type | activation fold | 0.9 |
| BzATP | P2X purinoceptor 7 (P2rx7, Rattus norvegicus, UniProt Q64663, I214A) | ion current, agonist, two-electrode voltage clamp | Xenopus oocytes | 3.7 µM |  | normalized current | 0.733 and 0.68 and 0.444 |
| VVVGASGVGK | HLA-A*11:01 peptide-β2M single-chain trimer | western blot, measured: pMHC-I | peptide, 293T cells | 60 h, unit not given, together with: 100 µg/mL cycloheximide | relative to: time zero | remaining protein | 0.447 and 0.47 and 0.424 |
| B1 (human AP2B1) | CYB5R4 knockout human cells | PP4 interaction, 3xFLAG-PP4C IP-MS |  | concentration not given | relative to: CYB5R4 KO over parental | log2 fold change | 0.19 |
| 11-deoxycorticosterone | CYP11B2 (human) | substrate binding, stopped-flow global kinetic fitting | purified enzyme | 3-state induced fit model, together with: equimolar adrenodoxin |  | rate constant k-1 | 47.2 ± 1.85 s⁻¹ |
| B2 (human PHGDH) | PP6C (human) | co-immunoprecipitation, IP-MS | CYB5R4 knockout cells | concentration not given | relative to: CYB5R4 knockout over parental | log2 fold change | -0.1 |
| FGB (Homo sapiens, UniProt P02675) | ULK2 (Homo sapiens, UniProt Q8IYT8) | cross-linking MS |  | together with: DSSO |  | cross-linked residues | K353 to K672 |
| B3 (human EEF1D) | CYB5R4 knockout human cells | PP4 interaction, 3xFLAG-PP4C IP-MS |  | concentration not given | relative to: CYB5R4 KO over parental | log2 fold change | 0.8 |
| caspofungin |  |  | adult ICU patients, mITT, serum | dose not given, Baseline |  | aspartate aminotransferase | 28.1 U/L |
| B4 (human archaemetzincin-2) | CYB5R4 knockout human cells | PP4 interaction, 3xFLAG-PP4C IP-MS |  | concentration not given | relative to: CYB5R4 KO over parental | log2 fold change | 0.43 |
| milbemycin oxime | Saccharomyces cerevisiae | cell growth | Pdr5 deleted, Cdr1 overexpressed | 2^-4.966 µg/mL, together with: fluconazole 10 µg/mL |  | OD600 | 0.056 and 0.057 and 0.067 |
